# Experimental data of several laboratories.
# Values joined by “and” are separate records of one study, mostly repeats; a detail may differ. ± gives the spread as reported.
# B1: Escherichia coli lac repressor; chain MKPVTLYDVAEYAGVSYQTVSRVVNQASHVSAKTREKVEAAMAELNYIPNRVAQQLAGKQSLLIGVATSSLALHAPSQIVAAIKSRADQLGASVVVSMVERSGVEACKAAVHNLLAQRVSGLIINYPLDDQDAIAVEAACTNVPALFLDVSDQTPINSIIFSHEDGTRLGVEHLVALGHQQIALLAGPLSSVSARLRLAGWHKYLTRNQIQPIAEREGDWSAMSGFQQTMQMLNEGIVPTAMLVANDQMALGAMRAITESGLRVGADISVVGYDDTEDSSCYIPPLTTIKQDFRLLGQTSVDRLLQLSQGQAVKGNQLLPVSLVKRKTTLAPNTQTASPRALADSLMQLARQVSRLESGQ
Molecule,target,assay,test system,setting,scale,measurement,value
KKVVYFEFYE,"UltraID biotin ligase, C-terminal fusion","biotinylation activity, inhibitor, streptavidin/HA fluorescence ratio","peptide, HEK-293T","concentration not given, 30 min, together with: biotin 50 µM",reference: control,inhibition,> 75%
GTSRNKRGV,Mamu-B*08301 MHC class I,peptide binding,"peptide, Chinese rhesus macaque",,,IC50,> 20 µM
EMIDENRRRVLVKVVLFP,"UltraID biotin ligase, C-terminal fusion","biotinylation activity, inhibitor, streptavidin/HA fluorescence ratio","peptide, HEK-293T","concentration not given, 30 min, together with: biotin 50 µM",reference: control,inhibition,> 75%
CEMDGQCKRDLKCCMGMCGKSCVSPVKA,ERK (mouse),Western blot,"peptide, RAW264.7","concentration not given, 6 h pretreatment, together with: LPS for 30 min",,p-ERK/ERK ratio,0.61 ± 0.07
RGPGRAFV,mouse H2-Dd/human β2m,"thermal stability rescue, DSF",peptide,"20-fold molar excess, pH 7.2, peptide-deficient, UV-irradiated",,Tm,35.1 ± 0.4 °C
somatostatin-14,human somatostatin receptor 2,cAMP level,HCT-116 expressing SSTR2,"30 min, 37 °C, together with: 10 µM forskolin",,IC50,0.001 ± 0.0001 µM
RAIRGEQLL,Mamu-B*08301 MHC class I,peptide binding,"peptide, Chinese rhesus macaque",,,IC50,> 20 µM
RGPGRAFVT,mouse H2-Dd/human β2m,"thermal stability rescue, DSF",peptide,"20-fold molar excess, pH 7.2, peptide-deficient, UV-irradiated",,Tm,34.8 ± 0.3 °C
IQLGLQKCV,Mamu-B*08301 MHC class I,peptide binding,"peptide, Chinese rhesus macaque",,,IC50,> 20 µM
AAATQEMTLVDTPNAK,MsrA and MsrB,LC-MS/MS,"peptide, actinonin-treated Escherichia coli proteome","10 min, pH 7.5, 37 °C, together with: MsrA 0.54 µM, MsrB 2.02 µM",,fractional oxidation,0.518
PPEDPAVDL,Mamu-A1*02601 MHC class I,peptide binding,"peptide, Chinese rhesus macaque",,,IC50,> 20 µM
I-BET151,BRD4 bromodomains BRD2 D1 and D2,SDS-PAGE,,,,photocrosslinking,no effect
LAYTYEAYV,Mamu-A1*02601 MHC class I,peptide binding,"peptide, Chinese rhesus macaque",,,IC50,> 20 µM
EFTEDELPSDSCVFGGQKLTL,"IKK, human",,peptide,"500 µM, 5 min, 30 °C, together with: IκBα 1 µM",reference: no peptide,IκBα phosphorylation,5.69% and 0%
GRAFVTI,mouse H2-Dd S73C/human β2m,"thermal stability rescue, DSF",peptide,"20-fold molar excess, pH 7.2, peptide-deficient, together with: TCEP 1 mM",,Tm,36.3 ± 0.2 °C
orexin-B,non-responsive control sensor,"sensor fluorescence, fluorescence imaging",HEK293T,"10 µM, together with: OXB 10 µM",reference: baseline,maximal ΔF/F0,3.95% and 13.2% and 7.2% and -9.18% and 6.7% and 6.15%
nonaarginine,PorA peptide pore,"peptide binding, planar bilayer single-channel recording",,"0.5 µM, pH 7.4, +5 mV, trans side, 150 mM KCl",,kon,970000 ± 100000 M⁻¹ s⁻¹
HSNVKELVF,Mamu-B*08301 MHC class I,peptide binding,"peptide, Chinese rhesus macaque",,,IC50,> 20 µM
RAFVTI,mouse H2-Dd/human β2m,"thermal stability rescue, DSF",peptide,"20-fold molar excess, pH 7.2, peptide-deficient, UV-irradiated",,Tm,35.8 ± 0.5 °C
B1 (Escherichia coli lac repressor),lac repressor Escherichia coli,,,"concentration not given, no operator DNA, together with: [14C]IPTG",,remaining binding,100%
LEENITALL,Mamu-A1*02601 MHC class I,peptide binding,"peptide, Chinese rhesus macaque",,,IC50,> 20 µM
hexaarginine,PorA peptide pore,"peptide binding, planar bilayer single-channel recording",,"0.5 µM, pH 7.4, +20 mV, trans side, 150 mM KCl",,kon,1.71e+07 ± 2e+06 M⁻¹ s⁻¹
